Published values gathered from unrelated publications.
Each numbered part is a random draw from the data of one study; scales do not carry over between parts. “And” joins repeats or separate records; there may be more than shown.
UniProt O00506, sequence (whole entry, looked up): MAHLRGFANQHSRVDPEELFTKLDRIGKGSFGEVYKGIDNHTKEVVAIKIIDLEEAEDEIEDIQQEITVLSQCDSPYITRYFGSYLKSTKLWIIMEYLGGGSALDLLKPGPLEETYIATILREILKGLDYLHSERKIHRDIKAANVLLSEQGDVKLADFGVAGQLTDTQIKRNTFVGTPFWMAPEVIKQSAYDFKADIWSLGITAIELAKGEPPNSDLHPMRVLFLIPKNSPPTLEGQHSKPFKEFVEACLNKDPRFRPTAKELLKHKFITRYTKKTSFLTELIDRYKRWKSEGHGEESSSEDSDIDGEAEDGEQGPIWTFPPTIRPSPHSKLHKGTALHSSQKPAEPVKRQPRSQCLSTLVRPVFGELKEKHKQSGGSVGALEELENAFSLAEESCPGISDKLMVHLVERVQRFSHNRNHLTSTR
UniProt P42336, sequence (whole entry, unmodified, looked up): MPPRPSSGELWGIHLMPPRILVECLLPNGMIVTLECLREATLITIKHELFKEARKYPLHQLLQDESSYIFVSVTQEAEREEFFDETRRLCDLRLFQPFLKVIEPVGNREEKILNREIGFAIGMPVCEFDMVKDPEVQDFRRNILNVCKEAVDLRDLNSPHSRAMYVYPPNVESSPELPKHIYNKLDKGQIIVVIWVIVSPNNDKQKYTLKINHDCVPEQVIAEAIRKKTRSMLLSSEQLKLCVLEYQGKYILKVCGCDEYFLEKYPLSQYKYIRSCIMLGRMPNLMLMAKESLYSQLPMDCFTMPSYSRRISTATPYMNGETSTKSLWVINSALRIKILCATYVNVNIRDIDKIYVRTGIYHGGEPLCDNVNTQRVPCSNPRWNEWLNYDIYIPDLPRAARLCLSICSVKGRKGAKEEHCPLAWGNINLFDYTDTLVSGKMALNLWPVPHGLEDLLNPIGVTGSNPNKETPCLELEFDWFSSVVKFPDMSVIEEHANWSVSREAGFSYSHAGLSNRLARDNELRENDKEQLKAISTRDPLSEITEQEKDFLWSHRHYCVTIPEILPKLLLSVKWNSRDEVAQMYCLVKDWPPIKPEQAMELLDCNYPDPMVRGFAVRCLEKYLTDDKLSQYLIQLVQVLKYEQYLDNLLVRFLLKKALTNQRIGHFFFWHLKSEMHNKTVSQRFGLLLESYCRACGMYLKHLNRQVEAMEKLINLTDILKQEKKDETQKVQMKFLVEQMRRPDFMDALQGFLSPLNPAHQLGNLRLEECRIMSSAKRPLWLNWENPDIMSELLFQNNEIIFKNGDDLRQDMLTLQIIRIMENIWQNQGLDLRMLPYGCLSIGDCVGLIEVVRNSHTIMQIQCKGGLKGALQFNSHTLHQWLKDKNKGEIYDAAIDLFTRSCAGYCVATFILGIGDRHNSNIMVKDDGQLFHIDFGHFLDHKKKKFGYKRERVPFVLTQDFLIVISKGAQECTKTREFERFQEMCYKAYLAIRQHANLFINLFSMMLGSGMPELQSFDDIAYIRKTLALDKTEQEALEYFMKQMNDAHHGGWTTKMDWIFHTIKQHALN
UniProt P42679, sequence (whole entry, looked up): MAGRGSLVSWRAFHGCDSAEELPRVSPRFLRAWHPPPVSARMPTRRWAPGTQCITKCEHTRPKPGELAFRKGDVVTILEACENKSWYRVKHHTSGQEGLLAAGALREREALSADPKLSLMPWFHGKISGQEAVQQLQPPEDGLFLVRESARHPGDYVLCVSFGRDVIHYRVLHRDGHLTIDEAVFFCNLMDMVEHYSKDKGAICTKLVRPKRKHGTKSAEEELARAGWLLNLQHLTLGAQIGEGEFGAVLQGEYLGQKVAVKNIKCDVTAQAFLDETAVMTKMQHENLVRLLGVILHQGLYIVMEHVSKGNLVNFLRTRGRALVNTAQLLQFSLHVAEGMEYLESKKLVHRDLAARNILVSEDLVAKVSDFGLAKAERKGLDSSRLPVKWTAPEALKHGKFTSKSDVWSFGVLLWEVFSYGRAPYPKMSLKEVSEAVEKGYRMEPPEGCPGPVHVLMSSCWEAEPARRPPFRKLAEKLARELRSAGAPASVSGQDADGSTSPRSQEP

Block 1
SMILES: Cc1cncc2cccc(S(=O)(=O)N3CCCN(C(=O)CN)C[C@@H]3C)c12
Effect on: enzyme activity
Action: inhibitor
Tested at: 0.5 µM
Relative to: control
Endpoint: remaining activity
LIM domain kinase 1 (LIMK1, Homo sapiens, UniProt P53667): 91.9%
Tyrosine-protein kinase Fyn (FYN, Homo sapiens, UniProt P06241): 94.2%
Proto-oncogene tyrosine-protein kinase Src (SRC, Homo sapiens, UniProt P12931): 93.6%
ALK tyrosine kinase receptor (ALK, Homo sapiens, UniProt Q9UM73): 113%
Vascular endothelial growth factor receptor 3 (FLT4, Homo sapiens, UniProt P35916): 113%
Serine/threonine-protein kinase N1 (PKN1, Homo sapiens, UniProt Q16512): 25.3%
Tyrosine-protein kinase Fgr (FGR, Homo sapiens, UniProt P09769): 94.1%
cAMP-dependent protein kinase catalytic subunit PRKX (PRKX, Homo sapiens, UniProt P51817): 54.2%
Homeodomain-interacting protein kinase 1 (HIPK1, Homo sapiens, UniProt Q86Z02): 99.1%
Serine/threonine-protein kinase 25 (STK25, Homo sapiens, UniProt O00506): 119%
Megakaryocyte-associated tyrosine-protein kinase (MATK, Homo sapiens, UniProt P42679): 94.4%
Tyrosine-protein kinase ITK/TSK (ITK, Homo sapiens, UniProt Q08881): 97.2%
Tyrosine-protein kinase Fer (FER, Homo sapiens, UniProt P16591): 66%
Serine/threonine-protein kinase NLK (NLK, Homo sapiens, UniProt Q9UBE8): 99.6%
Cyclin-dependent kinase 3, with cyclin E (CDK3, Homo sapiens, UniProt Q00526): 98%
Serine/threonine-protein kinase TAO3 (TAOK3, Homo sapiens, UniProt Q9H2K8): 96.2%
Serine/threonine-protein kinase MRCK alpha (CDC42BPA, Homo sapiens, UniProt Q5VT25): 95.1%
RAC-alpha serine/threonine-protein kinase (AKT1, Homo sapiens, UniProt P31749): 104%
MAP/microtubule affinity-regulating kinase 3 (MARK3, Homo sapiens, UniProt P27448): 98.9%
PAS domain-containing serine/threonine-protein kinase (PASK, Homo sapiens, UniProt Q96RG2): 105%
Insulin receptor (INSR, Homo sapiens, UniProt P06213): 88.9%
Serine/threonine-protein kinase Nek11 (NEK11, Homo sapiens, UniProt Q8NG66): 84.2%

Block 2
Target: Calcium/calmodulin-dependent protein kinase type II subunit alpha (CAMK2A, Homo sapiens, UniProt Q9UQM7)
UniProt Q9UQM7, sequence (whole entry, looked up): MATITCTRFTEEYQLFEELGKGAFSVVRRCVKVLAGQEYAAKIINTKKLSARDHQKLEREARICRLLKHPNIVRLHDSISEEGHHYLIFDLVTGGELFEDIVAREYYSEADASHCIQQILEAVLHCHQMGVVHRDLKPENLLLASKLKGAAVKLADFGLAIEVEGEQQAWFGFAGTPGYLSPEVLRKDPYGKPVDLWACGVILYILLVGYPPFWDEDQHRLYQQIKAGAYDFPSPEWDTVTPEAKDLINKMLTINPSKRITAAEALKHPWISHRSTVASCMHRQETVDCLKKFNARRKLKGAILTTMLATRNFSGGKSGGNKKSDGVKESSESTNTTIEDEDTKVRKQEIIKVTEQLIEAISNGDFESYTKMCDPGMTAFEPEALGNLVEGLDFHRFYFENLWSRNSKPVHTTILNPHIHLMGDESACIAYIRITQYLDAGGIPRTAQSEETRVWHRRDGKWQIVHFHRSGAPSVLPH
Effect on: enzyme activity
Action: inhibitor
Tested at: 10 µM
Endpoint: inhibition
Nc1nnc(-c2cccc(Cl)c2Cl)c(N)n1: 1%
OC(c1ccccc1)(c1ccccc1)C12CC[N+](CCOCc3ccccc3)(CC1)CC2: -8%
CC(C)C1=Cc2ccc3c(c2C(=O)C1=O)CCCC3(C)C: -37%
C[C@@H]1O[C@@H](O[C@@H]2[C@@H](O)[C@H](OCCc3ccc(O)c(O)c3)O[C@H](CO[C@@H]3O[C@H](CO)[C@@H](O)[C@H](O)[C@H]3O)[C@H]2OC(=O)/C=C/c2ccc(O)c(O)c2)[C@H](O)[C@H](O)[C@H]1O: -19%
CCC(=O)O[C@@H]1CC(=O)O[C@H](C)C/C=C/C=C/[C@H](O)[C@H](C)C[C@H](CC=O)[C@H](O[C@@H]2O[C@H](C)[C@@H](O[C@H]3C[C@@](C)(O)[C@@H](OC(=O)CC)[C@H](C)O3)[C@H](N(C)C)[C@H]2O)[C@H]1OC: -4%
COC(=O)C1CCCCC1: -3%
NC(COP(=O)(O)O)C(=O)O (racemic): -35%
CCCCCCCCCCCCCCCC(=O)NCC(=O)O: -13%
COc1ccc2[nH]cc(CCNC(C)=O)c2c1: 4%
CCCCCCCCCCCC(=O)O[C@H](CC(=O)[O-])C[N+](C)(C)C: -28%
COc1cc(O)c2c(c1)O[C@H](c1ccccc1)CC2=O: 1%

Block 3
Structure (SMILES): CS(=O)(=O)c1cc(C2(NC(=O)c3cncc4c3cnn4-c3ccc(F)cc3)CC2)ccn1
Effect on: cell-free assay
Technique: competition with immobilised ligand
Tested at: 1 µM
Endpoint: remaining binding
MAP kinase-activated protein kinase 2 (MAPKAPK2, Homo sapiens, UniProt P49137): 100%
Mast/stem cell growth factor receptor Kit (KIT, Homo sapiens, UniProt P10721, A829P): 100%
Receptor-type tyrosine-protein kinase FLT3 (FLT3, Homo sapiens, UniProt P36888, K663Q): 100%
Calcium/calmodulin-dependent protein kinase type 1B (PNCK, Homo sapiens, UniProt Q6P2M8): 78%
Serine/threonine-protein kinase Nek2 (NEK2, Homo sapiens, UniProt P51955): 93%
Phosphatidylinositol 4,5-bisphosphate 3-kinase catalytic subunit alpha isoform (PIK3CA, Homo sapiens, UniProt P42336): 100%
Ephrin type-A receptor 1 (EPHA1, Homo sapiens, UniProt P21709): 100%
Bone morphogenetic protein receptor type-1B (BMPR1B, Homo sapiens, UniProt O00238): 82%
Phosphatidylinositol 4,5-bisphosphate 3-kinase catalytic subunit alpha isoform (PIK3CA, Homo sapiens, UniProt P42336, E545K): 74%
Serine/threonine-protein kinase 25 (STK25, Homo sapiens, UniProt O00506): 100%
Insulin receptor (INSR, Homo sapiens, UniProt P06213): 100%
Proto-oncogene tyrosine-protein kinase receptor Ret (RET, Homo sapiens, UniProt P07949, V804L): 100%
Interferon-induced, double-stranded RNA-activated protein kinase (EIF2AK2, Homo sapiens, UniProt P19525): 60%
Serine/threonine-protein kinase MAK (MAK, Homo sapiens, UniProt P20794): 100%
SNF-related serine/threonine-protein kinase (SNRK, Homo sapiens, UniProt Q9NRH2): 88%

Block 4
Target: DNA polymerase theta, ATPase domain (POLQ, Homo sapiens, UniProt O75417)
UniProt O75417, sequence (whole entry, unmodified, looked up): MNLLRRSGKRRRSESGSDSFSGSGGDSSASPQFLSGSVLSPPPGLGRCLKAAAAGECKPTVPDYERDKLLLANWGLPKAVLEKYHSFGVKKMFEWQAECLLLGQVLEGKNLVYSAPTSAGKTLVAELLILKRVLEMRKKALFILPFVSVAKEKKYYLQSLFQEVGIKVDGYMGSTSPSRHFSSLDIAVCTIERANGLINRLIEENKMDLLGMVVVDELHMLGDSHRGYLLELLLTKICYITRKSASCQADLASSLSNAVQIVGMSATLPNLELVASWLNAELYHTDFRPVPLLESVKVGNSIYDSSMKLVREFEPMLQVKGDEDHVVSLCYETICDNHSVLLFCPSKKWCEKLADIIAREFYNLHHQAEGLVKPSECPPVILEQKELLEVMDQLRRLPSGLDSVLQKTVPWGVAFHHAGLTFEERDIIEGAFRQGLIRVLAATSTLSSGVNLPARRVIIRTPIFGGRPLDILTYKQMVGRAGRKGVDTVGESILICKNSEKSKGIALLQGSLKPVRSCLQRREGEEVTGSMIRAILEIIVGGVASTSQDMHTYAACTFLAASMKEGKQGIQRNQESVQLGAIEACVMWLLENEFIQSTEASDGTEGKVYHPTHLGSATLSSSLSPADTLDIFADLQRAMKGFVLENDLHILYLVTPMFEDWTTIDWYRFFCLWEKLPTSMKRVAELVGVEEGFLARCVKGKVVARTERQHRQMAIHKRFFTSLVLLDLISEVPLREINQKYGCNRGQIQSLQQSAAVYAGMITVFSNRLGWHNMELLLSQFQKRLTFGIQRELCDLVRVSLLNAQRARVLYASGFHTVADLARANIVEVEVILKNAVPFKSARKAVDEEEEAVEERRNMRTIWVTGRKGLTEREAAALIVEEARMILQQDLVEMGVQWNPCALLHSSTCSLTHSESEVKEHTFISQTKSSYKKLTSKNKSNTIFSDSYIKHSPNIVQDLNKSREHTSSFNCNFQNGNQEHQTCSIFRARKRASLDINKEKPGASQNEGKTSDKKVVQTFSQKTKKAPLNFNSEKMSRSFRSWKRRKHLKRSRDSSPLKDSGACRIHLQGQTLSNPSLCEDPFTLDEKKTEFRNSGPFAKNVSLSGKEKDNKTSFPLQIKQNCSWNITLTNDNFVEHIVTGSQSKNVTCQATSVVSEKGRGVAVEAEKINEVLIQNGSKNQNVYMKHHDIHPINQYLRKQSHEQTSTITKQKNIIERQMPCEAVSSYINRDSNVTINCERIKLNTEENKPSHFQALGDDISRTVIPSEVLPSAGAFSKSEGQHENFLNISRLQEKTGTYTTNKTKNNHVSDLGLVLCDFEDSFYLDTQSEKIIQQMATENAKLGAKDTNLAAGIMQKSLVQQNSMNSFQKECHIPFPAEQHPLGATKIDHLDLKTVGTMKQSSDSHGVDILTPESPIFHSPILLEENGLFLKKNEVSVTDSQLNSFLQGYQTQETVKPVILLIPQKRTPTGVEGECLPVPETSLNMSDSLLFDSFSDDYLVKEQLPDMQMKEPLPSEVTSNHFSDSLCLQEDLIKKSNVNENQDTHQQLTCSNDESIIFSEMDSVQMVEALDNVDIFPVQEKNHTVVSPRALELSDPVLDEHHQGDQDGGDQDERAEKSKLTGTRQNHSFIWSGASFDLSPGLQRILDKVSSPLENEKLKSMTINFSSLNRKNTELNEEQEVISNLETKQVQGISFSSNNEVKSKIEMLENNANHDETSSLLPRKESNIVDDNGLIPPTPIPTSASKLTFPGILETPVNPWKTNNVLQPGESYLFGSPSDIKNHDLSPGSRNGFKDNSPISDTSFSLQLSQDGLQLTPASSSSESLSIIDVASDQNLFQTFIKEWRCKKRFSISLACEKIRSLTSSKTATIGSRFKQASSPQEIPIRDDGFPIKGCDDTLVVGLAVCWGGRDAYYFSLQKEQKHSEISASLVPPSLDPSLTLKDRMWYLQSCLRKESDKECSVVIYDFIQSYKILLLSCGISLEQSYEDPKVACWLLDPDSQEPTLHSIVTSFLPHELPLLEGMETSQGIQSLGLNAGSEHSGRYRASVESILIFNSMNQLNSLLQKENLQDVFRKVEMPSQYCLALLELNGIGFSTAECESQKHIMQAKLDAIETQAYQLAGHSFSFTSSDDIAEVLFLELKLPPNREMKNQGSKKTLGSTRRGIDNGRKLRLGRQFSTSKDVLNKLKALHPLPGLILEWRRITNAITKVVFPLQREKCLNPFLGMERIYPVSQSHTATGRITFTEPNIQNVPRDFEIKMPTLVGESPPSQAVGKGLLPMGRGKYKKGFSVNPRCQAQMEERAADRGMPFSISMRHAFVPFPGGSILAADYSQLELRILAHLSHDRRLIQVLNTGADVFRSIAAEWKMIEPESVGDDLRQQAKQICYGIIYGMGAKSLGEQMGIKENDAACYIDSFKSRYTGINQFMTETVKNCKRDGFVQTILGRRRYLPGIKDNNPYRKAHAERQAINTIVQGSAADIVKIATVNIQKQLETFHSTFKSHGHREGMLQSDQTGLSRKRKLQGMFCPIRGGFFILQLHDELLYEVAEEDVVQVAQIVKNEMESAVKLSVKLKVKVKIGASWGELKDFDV
Effect on: enzyme activity
Action: inhibitor
Tested at: 77 µM
Relative to: untreated
Endpoint: remaining activity
Cc1ccc(S(=O)(=O)Cc2nc(-c3ccc(C(=O)NCc4cccnc4)cc3)oc2C)cc1: 102%
O=C(c1cc(O)c(O)c([N+](=O)[O-])c1)c1ccccc1F: 87.1%
CCOC(=O)[C@]12CC1/C(=N\O)c1ccccc1O2 (some centres unmarked): 100%
Cc1noc(-c2ccc(CSCCC(=O)O)cc2)c1NC(=O)OC(C)c1ccccc1Cl (centres unmarked): 96.9%
Nc1nc(=O)[nH]cc1F: 104% and 102%
CN1CC(=O)N=C1NC(=O)Nc1cccc(Cl)c1: 99.8%
CNC(=O)CN1CCC(Oc2cc3c(Nc4cccc(Cl)c4F)ncnc3cc2OC)CC1: 96.7%
N#C[C@@H]1CCCN1C(=O)CNC12CC3CC(CC(O)(C3)C1)C2: 104%
COc1cc(Nc2c(C#N)cnc3cc(OCCCN4CCN(C)CC4)c(OC)cc23)c(Cl)cc1Cl: 95.8% and 95.3% and 98.1% and 100%
Fc1ccc(-c2nc3n(c2-c2ccncc2)CCS3)cc1: 95.6%
O=C(O)C[C@H](O)C[C@H](O)/C=C/c1c(C2CC2)nc2ccccc2c1-c1ccc(F)cc1: 94.4%

Some of these lines once more (block 3):
Serine/threonine-protein kinase 25 (STK25, Homo sapiens, UniProt O00506): 100%
Insulin receptor (INSR, Homo sapiens, UniProt P06213): 100%
Proto-oncogene tyrosine-protein kinase receptor Ret (RET, Homo sapiens, UniProt P07949, V804L): 100%
Interferon-induced, double-stranded RNA-activated protein kinase (EIF2AK2, Homo sapiens, UniProt P19525): 60%
Serine/threonine-protein kinase MAK (MAK, Homo sapiens, UniProt P20794): 100%
